{"data": "Published values collected from several papers", "AMY2": "Pancreatic alpha-amylase (AMY2, Sus scrofa, UniProt P00690)", "AKR1C2": "Aldo-keto reductase family 1 member C2 (AKR1C2, Homo sapiens, UniProt P52895)", "MAOB": "Amine oxidase [flavin-containing] B (MAOB, Homo sapiens, UniProt P27338)", "Sigmar1": "Sigma non-opioid intracellular receptor 1 (Sigmar1, Rattus norvegicus, UniProt Q9R0C9)", "PDK1": "[Pyruvate dehydrogenase (acetyl-transferring)] kinase isozyme 1, mitochondrial (PDK1, Homo sapiens, UniProt Q15118)", "ELANE": "Neutrophil elastase (ELANE, Homo sapiens, UniProt P08246)", "PNLIP": "Pancreatic triacylglycerol lipase (PNLIP, Sus scrofa, UniProt P00591)", "hdac10": "Polyamine deacetylase HDAC10 (hdac10, Danio rerio, UniProt F1QCV2)", "Ectonucleoside triphosphate diphosphohydrolase 8": "Ectonucleoside triphosphate diphosphohydrolase 8 (Homo sapiens, UniProt Q5MY95)", "note": "Compare with care: the assays were run in different laboratories. Values joined by “and” are separate records of one study, mostly repeats; a detail may differ. Numbers after ± are the reported error.", "UniProt F1QCV2, sequence (whole entry, looked up)": "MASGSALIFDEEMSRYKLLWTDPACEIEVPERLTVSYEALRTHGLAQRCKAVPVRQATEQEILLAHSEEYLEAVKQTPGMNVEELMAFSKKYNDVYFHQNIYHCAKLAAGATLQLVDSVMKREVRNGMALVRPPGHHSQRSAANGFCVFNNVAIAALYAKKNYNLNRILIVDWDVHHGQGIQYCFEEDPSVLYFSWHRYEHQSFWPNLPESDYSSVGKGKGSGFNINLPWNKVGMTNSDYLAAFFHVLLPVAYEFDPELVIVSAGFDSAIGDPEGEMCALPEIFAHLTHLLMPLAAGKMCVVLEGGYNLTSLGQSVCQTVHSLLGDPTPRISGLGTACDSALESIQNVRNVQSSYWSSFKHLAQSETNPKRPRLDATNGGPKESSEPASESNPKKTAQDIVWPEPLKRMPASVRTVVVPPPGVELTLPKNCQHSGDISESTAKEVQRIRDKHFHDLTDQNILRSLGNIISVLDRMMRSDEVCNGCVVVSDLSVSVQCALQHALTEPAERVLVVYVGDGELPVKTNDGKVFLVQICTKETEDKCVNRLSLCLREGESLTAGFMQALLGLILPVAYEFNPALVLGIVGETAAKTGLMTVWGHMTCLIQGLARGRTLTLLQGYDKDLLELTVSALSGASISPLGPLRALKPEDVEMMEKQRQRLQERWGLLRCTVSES", "UniProt Q5MY95, sequence (whole entry, looked up)": "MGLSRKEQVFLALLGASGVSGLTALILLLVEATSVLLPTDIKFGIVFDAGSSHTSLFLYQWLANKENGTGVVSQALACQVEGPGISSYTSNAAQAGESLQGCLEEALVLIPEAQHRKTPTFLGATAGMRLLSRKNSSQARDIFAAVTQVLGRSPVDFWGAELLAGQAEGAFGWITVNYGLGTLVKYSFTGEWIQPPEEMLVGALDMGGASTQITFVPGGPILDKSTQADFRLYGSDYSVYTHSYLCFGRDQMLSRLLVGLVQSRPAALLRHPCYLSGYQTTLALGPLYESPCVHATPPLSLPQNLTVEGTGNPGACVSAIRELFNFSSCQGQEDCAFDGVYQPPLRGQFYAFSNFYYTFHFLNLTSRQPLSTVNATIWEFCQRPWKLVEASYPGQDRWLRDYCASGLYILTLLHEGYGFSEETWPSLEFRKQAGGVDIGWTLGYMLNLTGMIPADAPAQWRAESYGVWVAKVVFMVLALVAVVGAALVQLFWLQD", "UniProt Q9R0C9, sequence (whole entry, looked up)": "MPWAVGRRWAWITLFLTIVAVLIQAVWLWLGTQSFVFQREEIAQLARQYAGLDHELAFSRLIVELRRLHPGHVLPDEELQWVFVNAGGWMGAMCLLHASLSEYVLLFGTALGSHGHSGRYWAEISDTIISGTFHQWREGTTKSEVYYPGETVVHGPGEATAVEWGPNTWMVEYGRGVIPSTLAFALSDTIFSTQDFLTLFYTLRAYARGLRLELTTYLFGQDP", "UniProt P52895, sequence (whole entry, looked up)": "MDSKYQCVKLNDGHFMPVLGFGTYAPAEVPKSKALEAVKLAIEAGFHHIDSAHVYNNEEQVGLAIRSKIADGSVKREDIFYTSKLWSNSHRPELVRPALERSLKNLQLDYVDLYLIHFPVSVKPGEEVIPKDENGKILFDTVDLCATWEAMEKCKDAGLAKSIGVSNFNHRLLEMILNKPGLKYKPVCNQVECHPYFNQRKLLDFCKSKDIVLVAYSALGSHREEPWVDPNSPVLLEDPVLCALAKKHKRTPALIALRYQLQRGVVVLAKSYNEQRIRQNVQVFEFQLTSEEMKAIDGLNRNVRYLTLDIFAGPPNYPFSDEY", "UniProt P48736, sequence (whole entry, looked up)": "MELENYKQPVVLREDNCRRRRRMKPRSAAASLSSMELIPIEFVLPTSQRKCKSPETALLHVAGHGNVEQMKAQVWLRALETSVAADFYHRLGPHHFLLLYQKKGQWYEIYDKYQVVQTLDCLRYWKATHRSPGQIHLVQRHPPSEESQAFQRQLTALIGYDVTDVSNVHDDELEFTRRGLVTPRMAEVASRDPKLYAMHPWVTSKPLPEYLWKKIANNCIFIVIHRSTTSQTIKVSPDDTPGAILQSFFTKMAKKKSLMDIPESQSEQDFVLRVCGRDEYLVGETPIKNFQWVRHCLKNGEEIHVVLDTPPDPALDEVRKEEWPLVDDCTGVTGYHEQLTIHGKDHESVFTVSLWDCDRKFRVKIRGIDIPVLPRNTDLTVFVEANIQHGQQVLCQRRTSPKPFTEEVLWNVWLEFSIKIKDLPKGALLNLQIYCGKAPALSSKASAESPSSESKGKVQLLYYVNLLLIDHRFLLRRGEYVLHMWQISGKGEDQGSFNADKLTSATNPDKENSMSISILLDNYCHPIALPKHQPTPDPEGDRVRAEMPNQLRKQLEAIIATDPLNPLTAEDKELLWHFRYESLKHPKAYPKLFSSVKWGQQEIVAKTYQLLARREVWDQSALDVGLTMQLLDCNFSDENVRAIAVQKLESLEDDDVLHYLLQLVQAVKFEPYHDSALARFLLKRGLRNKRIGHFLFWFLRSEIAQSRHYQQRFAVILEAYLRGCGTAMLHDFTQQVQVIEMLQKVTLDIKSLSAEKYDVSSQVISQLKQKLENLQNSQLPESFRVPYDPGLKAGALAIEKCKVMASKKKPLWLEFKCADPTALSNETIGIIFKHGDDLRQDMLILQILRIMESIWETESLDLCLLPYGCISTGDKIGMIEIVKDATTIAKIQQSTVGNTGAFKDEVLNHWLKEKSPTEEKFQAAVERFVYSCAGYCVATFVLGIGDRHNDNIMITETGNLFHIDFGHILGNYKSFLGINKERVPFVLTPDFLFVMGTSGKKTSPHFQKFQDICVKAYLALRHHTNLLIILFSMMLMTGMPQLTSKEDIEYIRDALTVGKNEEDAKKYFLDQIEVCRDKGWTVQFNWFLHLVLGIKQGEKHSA", "UniProt Q15118, sequence (whole entry, looked up)": "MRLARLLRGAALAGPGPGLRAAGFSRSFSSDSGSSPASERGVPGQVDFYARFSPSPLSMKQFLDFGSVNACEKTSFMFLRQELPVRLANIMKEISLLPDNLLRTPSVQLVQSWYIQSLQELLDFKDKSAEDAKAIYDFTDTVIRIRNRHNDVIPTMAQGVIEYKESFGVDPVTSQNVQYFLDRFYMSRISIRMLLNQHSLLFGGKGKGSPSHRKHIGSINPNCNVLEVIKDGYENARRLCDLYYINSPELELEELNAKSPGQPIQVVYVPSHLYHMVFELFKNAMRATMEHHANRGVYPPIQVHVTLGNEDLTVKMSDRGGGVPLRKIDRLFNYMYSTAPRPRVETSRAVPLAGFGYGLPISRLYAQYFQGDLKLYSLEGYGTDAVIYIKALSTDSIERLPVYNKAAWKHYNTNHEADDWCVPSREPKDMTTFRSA", "UniProt P08246, sequence (whole entry, looked up)": "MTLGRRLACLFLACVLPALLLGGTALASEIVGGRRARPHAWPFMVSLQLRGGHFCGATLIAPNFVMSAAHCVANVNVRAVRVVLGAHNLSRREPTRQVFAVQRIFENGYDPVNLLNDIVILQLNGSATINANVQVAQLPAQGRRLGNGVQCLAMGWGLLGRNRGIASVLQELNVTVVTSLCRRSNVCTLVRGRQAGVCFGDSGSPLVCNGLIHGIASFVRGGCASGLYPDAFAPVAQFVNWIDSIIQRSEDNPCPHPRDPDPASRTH", "UniProt P27338, sequence (whole entry, looked up)": "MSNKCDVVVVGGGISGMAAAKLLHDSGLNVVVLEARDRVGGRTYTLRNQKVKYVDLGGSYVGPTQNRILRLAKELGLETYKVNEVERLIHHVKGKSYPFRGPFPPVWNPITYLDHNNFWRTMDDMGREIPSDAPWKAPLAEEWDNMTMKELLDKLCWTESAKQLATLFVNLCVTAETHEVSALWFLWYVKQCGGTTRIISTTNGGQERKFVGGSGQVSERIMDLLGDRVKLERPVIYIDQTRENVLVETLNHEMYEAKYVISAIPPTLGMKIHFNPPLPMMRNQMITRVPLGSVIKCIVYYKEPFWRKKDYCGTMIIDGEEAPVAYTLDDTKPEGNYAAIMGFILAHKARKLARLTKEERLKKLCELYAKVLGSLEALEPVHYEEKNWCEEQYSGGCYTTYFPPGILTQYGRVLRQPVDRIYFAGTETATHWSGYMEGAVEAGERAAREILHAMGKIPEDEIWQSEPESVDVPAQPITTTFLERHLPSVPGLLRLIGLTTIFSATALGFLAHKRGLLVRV", "UniProt P00591, sequence (whole entry, looked up)": "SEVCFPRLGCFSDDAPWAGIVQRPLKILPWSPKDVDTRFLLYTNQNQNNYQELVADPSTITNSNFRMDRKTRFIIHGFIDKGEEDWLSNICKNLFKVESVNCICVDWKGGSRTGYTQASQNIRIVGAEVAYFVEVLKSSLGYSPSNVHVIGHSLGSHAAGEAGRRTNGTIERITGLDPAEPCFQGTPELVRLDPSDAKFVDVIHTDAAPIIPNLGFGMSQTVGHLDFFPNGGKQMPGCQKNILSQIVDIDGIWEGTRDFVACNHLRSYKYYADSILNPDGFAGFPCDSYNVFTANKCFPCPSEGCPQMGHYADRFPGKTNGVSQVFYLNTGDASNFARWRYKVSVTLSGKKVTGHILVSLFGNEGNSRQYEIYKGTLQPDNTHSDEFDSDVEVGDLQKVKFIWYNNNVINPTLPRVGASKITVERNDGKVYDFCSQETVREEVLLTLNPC", "UniProt P11802, sequence (whole entry, looked up)": "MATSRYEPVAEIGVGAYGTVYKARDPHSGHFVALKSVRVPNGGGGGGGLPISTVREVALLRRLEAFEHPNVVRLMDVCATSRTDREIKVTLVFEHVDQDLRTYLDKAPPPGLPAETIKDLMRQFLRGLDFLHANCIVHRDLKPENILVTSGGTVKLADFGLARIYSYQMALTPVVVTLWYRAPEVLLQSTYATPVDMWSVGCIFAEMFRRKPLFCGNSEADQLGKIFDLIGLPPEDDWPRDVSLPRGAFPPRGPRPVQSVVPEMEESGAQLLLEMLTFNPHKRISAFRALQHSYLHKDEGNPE"}
{"Compound": "Cc1cccc(/C=C/C(=O)c2cnn(-c3ccccc3)c2C)c1", "target": "AMY2", "assay": "enzyme activity, inhibitor, absorbance", "conditions": "40 µM", "inhibition": "14.9%"}
{"Compound": "NC(=O)CCNC(=O)[C@H]1O[C@@H](n2cnc3c(N)ncnc32)[C@H](O)[C@@H]1O", "target": "Adenosine receptor A2a (ADORA2A, Homo sapiens, UniProt P29274)", "assay": "radioligand binding", "test system": "HEK293 membranes", "conditions": "10 µM, together with: [3H]CGS21680", "inhibition": "44 ± 4%"}
{"Compound": "C[C@@]12CC[C@@H]3c4ccc(O)c(I)c4CC[C@H]3[C@@H]1CCC2=O", "target": "AKR1C2", "assay": "enzyme activity, inhibitor, absorbance", "conditions": "10 µM, pH 9", "inhibition": "16.5%"}
{"Compound": "O=C(/C=C/c1ccc2c(c1)OCCO2)c1ccc(Br)s1", "target": "MAOB", "assay": "enzyme activity, inhibitor, fluorescence", "conditions": "1 µM", "inhibition": "83.8%"}
{"Compound": "CC(C)(O)CC(=O)CC(C(=O)O)C1CC[C@]2(C)C1CCC1[C@@]3(C)CC[C@H](O)C(C)(C)C3CC[C@]12C (stereo partly drawn)", "target": "α-glucosidase (yeast)", "conditions": "50 µM, together with: PNPG substrate", "inhibition": "44.3 ± 3.75%"}
{"Compound": "C/C(=N\\OCCCN1CCOCC1)c1ccc(C(F)(F)F)cc1", "target": "Sigmar1", "assay": "radioligand binding", "conditions": "10 µM", "inhibition": "99.2%"}
{"Compound": "COc1cc(OC)c(C(=O)CCc2ccccc2)c(O)c1O", "target": "α-glucosidase (Saccharomyces cerevisiae)", "assay": "inhibitor", "conditions": "10 µg/mL, together with: pNPG", "inhibition": "32.9 ± 1.77%"}
{"Compound": "C/C(=N\\OCCN1CCOCC1)c1ccccc1C(F)(F)F", "target": "Sigmar1", "assay": "radioligand binding", "conditions": "1 µM", "inhibition": "54.4%"}
{"Compound": "O=C(c1ccc(OCCO)c([N+](=O)[O-])c1)C(Cl)Cl", "target": "PDK1", "assay": "enzyme activity, inhibitor, ATP luminescence", "conditions": "10 µM", "inhibition": "33.2 to 39.1%"}
{"Compound": "COc1cc(/C=N\\C(=S)NNC(=O)CC2C(=O)c3ccccc3C2=O)cc(OC)c1OC", "target": "ELANE", "assay": "enzyme activity, inhibitor, fluorescence", "conditions": "10 µM", "inhibition": "17.3%"}
{"Compound": "CC(C)=CC1CC(C)(O)C2C3CCC4C5(C)CCC(OC6OCC(O)C(OC7OC(CO)C(O)C(O)C7O)C6OC6OC(C)C(O)C(O)C6O)C(C)(C)C5CCC4(C)C34COC2(C4)O1 (stereo not drawn)", "target": "PNLIP", "assay": "enzyme activity, inhibitor, absorbance", "conditions": "250 µM", "inhibition": "75%"}
{"Compound": "Cc1ccc(N2CCN(C(=O)c3noc(-c4ccc(F)cc4)n3)CC2)cc1", "target": "Sodium channel protein type 9 subunit alpha (SCN9A, Homo sapiens, UniProt Q15858)", "assay": "sodium current, whole-cell patch clamp", "test system": "HEK293, stable", "conditions": "20 µM", "inhibition": "3 ± 7%"}
{"Compound": "S=C(Nc1ccc(Cl)cc1)Nc1cccc2cccnc12", "target": "Beta-glucuronidase (uidA, Escherichia coli, UniProt P05804)", "assay": "enzyme activity, inhibitor, absorbance", "conditions": "100 µM", "inhibition": "53.9%"}
{"Compound": "C[C@]12CC[C@@H]3c4cc(Br)c(O)cc4CC[C@H]3[C@@H]1CCC2=O", "target": "AKR1C2", "assay": "enzyme activity, inhibitor, absorbance", "conditions": "10 µM, pH 9", "inhibition": "36.4%"}
{"Compound": "COc1cc(OC2CCN(C)CC2)ccc1Nc1ncc2c(n1)n(C1CCCC1)c(=O)n2C", "target": "Focal adhesion kinase 1 (PTK2, Homo sapiens, UniProt Q05397)", "assay": "enzyme activity, inhibitor", "conditions": "1 µM", "inhibition": "> 40%"}
{"Compound": "CCOC(=O)c1c(NC(=O)CN2CCN(c3ccccn3)CC2)sc2c1CCC(c1ccccc1)C2 (stereo not drawn)", "target": "PDK1", "assay": "enzyme activity, inhibitor, ATP luminescence", "conditions": "100 µg/mL", "inhibition": "16.8%"}
{"Compound": "O=C(NO)c1coc(-c2cccs2)n1", "target": "hdac10", "conditions": "1 µM", "inhibition": "37%"}
{"Compound": "O=[N+]([O-])c1ccc(-c2cs/c(=N/N=C/c3ccc(N4CCOCC4)cc3)n2-c2ccccc2)cc1", "target": "Carbonic anhydrase 2 (CA2, Bos taurus, UniProt P00921)", "assay": "enzyme activity, inhibitor, absorbance", "conditions": "500 µM", "inhibition": "89.8%"}
{"Compound": "Cc1nc2ccccc2n1S(=O)(=O)c1ccc2c(c1)C(=O)CC2=O", "target": "ELANE", "assay": "enzyme activity, inhibitor, fluorescence", "conditions": "100 µM", "inhibition": "35.2%"}
{"Compound": "O=C(Nc1ccc(Cl)cc1)c1cccc(S(=O)(=O)N2CCOCC2)c1", "target": "Ectonucleoside triphosphate diphosphohydrolase 8", "assay": "enzyme activity, inhibitor, absorbance", "conditions": "100 µM", "inhibition": "24%"}
{"Compound": "O=C(NCc1ccc(F)cc1)c1nc(NCCO)c2cccnc2c1O", "target": "Tripartite terminase subunit 3, C-terminal nuclease domain (Human betaherpesvirus 5, UniProt P16732)", "assay": "endonuclease activity, ELISA", "conditions": "10 µM", "inhibition": "53 ± 6.5%"}
{"Compound": "C#CCSc1nc(Sc2nnnn2-c2ccccc2)c2nnn(Cc3ccccc3Cl)c2n1", "target": "MAOB", "assay": "enzyme activity, inhibitor, luciferase", "conditions": "10 µM", "inhibition": "~40%"}
{"Compound": "C/C(=N\\OCCCCN(C)Cc1ccccc1)c1ccc(C(F)(F)F)cc1", "target": "Sigmar1", "assay": "radioligand binding", "conditions": "1 µM", "inhibition": "51.3%"}
{"Compound": "O=C(NO)C1=CCCC1", "target": "hdac10", "conditions": "0.1 µM", "inhibition": "45%"}
{"Compound": "C[C@]12CC[C@@H]3c4cc(Br)c(O)c(Br)c4CC[C@H]3[C@@H]1CCC2=O", "target": "AKR1C2", "assay": "enzyme activity, inhibitor, absorbance", "conditions": "10 µM, pH 9", "inhibition": "83%"}
{"Compound": "C/C(=N\\OCCN1CCOCC1)c1ccc(C(F)(F)F)cc1", "target": "Sigmar1", "assay": "radioligand binding", "conditions": "10 µM", "inhibition": "45.9%"}
{"Compound": "C[C@]12CC[C@@H]3c4cc(Cl)c(O)cc4CC[C@H]3[C@@H]1CCC2=O", "target": "AKR1C2", "assay": "enzyme activity, inhibitor, absorbance", "conditions": "10 µM, pH 9", "inhibition": "53%"}
{"Compound": "COC(=O)C(Cc1cccc(C)n1)NC(=O)CCCCCCC(=O)NO (stereo not drawn)", "target": "hdac10", "conditions": "0.1 µM", "inhibition": "11%"}
{"Compound": "CC(C)Cn1cc(-c2ccnc(Nc3ccc(C(=O)Nc4ccccc4N)cc3)n2)nn1", "target": "Cyclin-dependent kinase 4, with cyclin D3 (CDK4, Homo sapiens, UniProt P11802)", "assay": "enzyme activity, inhibitor, TR-FRET", "conditions": "5 µM", "inhibition": "3.4%"}
{"Compound": "O=C(NO)c1cc2c(Cl)cccc2s1", "target": "hdac10", "conditions": "1 µM", "inhibition": "56%"}
{"Compound": "CCC(=O)N(C)c1ccc(Cl)c(Cl)c1", "target": "Adenosine receptor A1 (ADORA1, Homo sapiens, UniProt P30542)", "assay": "ligand displacement, radioligand", "conditions": "10 µM", "inhibition": "21.9%"}
{"Compound": "O=C(O)c1cccc(S(=O)(=O)NC2CC2)c1", "target": "Ectonucleoside triphosphate diphosphohydrolase 8", "assay": "enzyme activity, inhibitor, absorbance", "conditions": "100 µM", "inhibition": "24%"}
{"Compound": "CN(C)c1ccc(C(=O)NCc2ccc(C(=O)NO)cc2)cc1", "target": "hdac10", "conditions": "1 µM", "inhibition": "42%"}
{"Compound": "O=C1COc2ccc(C(=O)COC(=O)c3ccc4c(c3)C(=O)N(c3ccccc3Cl)C4=O)cc2N1", "target": "Programmed cell death 1 ligand 1, with PD-1 (CD274, Homo sapiens, UniProt Q9NZQ7)", "assay": "PD-1/PD-L1 binding, inhibitor, TR-FRET", "conditions": "25 µM", "inhibition": "≥ 20%"}
{"Compound": "O=C(O)c1cc(S(=O)(=O)N2CCOCC2)ccc1Cl", "target": "Ectonucleoside triphosphate diphosphohydrolase 8", "assay": "enzyme activity, inhibitor, absorbance", "conditions": "100 µM", "inhibition": "36%"}
{"Compound": "Cc1cccc(NCC(=O)Nc2nc3ccccc3s2)c1", "target": "Phosphatidylinositol 4,5-bisphosphate 3-kinase catalytic subunit gamma isoform (PIK3CG, Homo sapiens, UniProt P48736)", "assay": "enzyme activity, Adapta kinase", "conditions": "100 µM", "inhibition": "52% and 44%"}
{"Compound": "O=C(Nc1ccccc1)c1ccccc1O", "target": "1-deoxy-D-xylulose 5-phosphate reductoisomerase (Escherichia coli K-12, UniProt P45568)", "assay": "enzyme activity, inhibitor, absorbance", "conditions": "100 µM", "inhibition": "100%"}
{"Compound": "CC(C)(O)C1=CCC(C2CC[C@]3(C)C2CCC2[C@@]4(C)CCC(O)C(C)(C)C4CC[C@]23C)C1=O (stereo partly drawn)", "target": "AMY2", "assay": "enzyme activity, inhibitor, absorbance", "conditions": "250 µM", "inhibition": "22.8%"}
{"Compound": "O=C(/C=C/c1ccccc1Cl)NO", "target": "hdac10", "conditions": "1 µM", "inhibition": "73%"}
{"Compound": "C/C(=N\\OCCCN1CCCCC1)c1ccc(S(C)(=O)=O)cc1", "target": "Sigmar1", "assay": "radioligand binding", "conditions": "1 µM", "inhibition": "70.3%"}
{"Compound": "Oc1cc(O)c2c(c1)O[C@H](c1cc(O)c(O)c(O)c1)[C@@H](O)C2 (racemic)", "target": "PNLIP", "assay": "enzyme activity, inhibitor", "conditions": "10 µM", "inhibition": "56.7%"}
{"Compound": "CC(C)C[C@H]1CNC(=O)N2C[C@H](C[C@H]2C(N)=O)SCC(=O)NCCNC(=O)CSC[C@H](NC(=O)[C@H](Cc2ccccc2)NC(=O)[C@H](CO)NC(=O)[C@@H](N)[C@@H](C)O)C(=O)N[C@@H](CCC(=O)O)C(=O)N[C@@H](Cc2ccc(O)cc2)C(=O)N[C@@H](Cc2c[nH]c3ccccc23)C(=O)N[C@@H](C)C(=O)N[C@@H](CC(C)C)CNC(=O)N1", "target": "E3 ubiquitin-protein ligase Mdm2, with p53 (MDM2, Homo sapiens, UniProt Q00987)", "conditions": "0.1 µM", "inhibition": "99%"}
{"note": "Some of these lines once more:"}
{"Compound": "Cc1cccc(NCC(=O)Nc2nc3ccccc3s2)c1", "target": "Phosphatidylinositol 4,5-bisphosphate 3-kinase catalytic subunit gamma isoform (PIK3CG, Homo sapiens, UniProt P48736)", "assay": "enzyme activity, Adapta kinase", "conditions": "100 µM", "inhibition": "52% and 44%"}
{"Compound": "O=C(Nc1ccccc1)c1ccccc1O", "target": "1-deoxy-D-xylulose 5-phosphate reductoisomerase (Escherichia coli K-12, UniProt P45568)", "assay": "enzyme activity, inhibitor, absorbance", "conditions": "100 µM", "inhibition": "100%"}
{"Compound": "CC(C)(O)C1=CCC(C2CC[C@]3(C)C2CCC2[C@@]4(C)CCC(O)C(C)(C)C4CC[C@]23C)C1=O (stereo partly drawn)", "target": "AMY2", "assay": "enzyme activity, inhibitor, absorbance", "conditions": "250 µM", "inhibition": "22.8%"}
